Results from different studies.
Lines come from different studies, so protocols differ. ± marks the error that the study gave.
Cell line: A549

`NS(=O)(=O)c1ccc(NC(=O)/C=C\c2ccc(O)c(O)c2)cc1`: catalase activity “increased” (6.25 µM, 24 h pretreatment, together with: 800 µM H2O2 for 4 h; reference: H2O2 alone).
`CC(C=NN=C(N)[S-])=NN=C(N)[S-].O=[N+]([O-])[O-].[Co+3].c1c[nH]cn1.c1c[nH]cn1` gave an IC50 of about 8.6 µM (cell viability, MTT; 24 h hypoxic, 48 h normoxic, hypoxic treatment).
The mRNA level of `COc1cccc2c1C(=O)c1c(O)c3c(c(O)c1C2=O)C[C@@](O)(C(=O)CO)C[C@@H]3O[C@H]1C[C@H](N)[C@H](O)[C@H](C)O1` is reported as 0.1 ± 0.008 fold (qPCR, measured: PI3K; IC50, 24 h; reference: untreated cancer cells).
With `CSVTCR` the adherent cells was 90% (peptide; 2 µg coated per well, 30 to 60 min; reference: thrombospondin-coated wells).
For `O=C(Cn1cc(COc2ccccc2-c2nc(Cc3ccccc3)no2)nn1)NNC(=S)Nc1ccccc1`, the mRNA level was 5.4 ± 0.01 fold (qPCR, measured: TP53; concentration not given, 24 h; reference: untreated).
`Nc1ncnc2[nH]ncc12` has an EC50 of 3 µM (cell viability).
`TCVCGS` gave an adherent cells of 10% (peptide; 2 µg coated per well, 30 to 60 min; reference: thrombospondin-coated wells).
`O=[N+]([O-])c1ccc(/C=C/c2nc3ccc([N+](=O)[O-])cc3nc2/C=C/c2ccc([N+](=O)[O-])cc2)cc1` gave an IC50 of over 100 µM (cell growth or viability, MTT; 72 h).
The adherent cells of `CSTSCG` is reported as 23% (peptide; 2 µg coated per well, 30 to 60 min; reference: thrombospondin-coated wells).
`Nc1nccc(-n2cc(C(=O)N[C@@H]3CCCNC3)c3ccc(C#CC4(O)CCCCC4)cc32)n1` gave a cell migration of 52% (wound-healing; 5 µM).
The IC50 of `Cc1cc(C)c(C2CN(C)C3(C(=O)Nc4ccccc43)C2C(=O)c2ccc(Br)cc2)c(C)c1` (stereo not drawn) is reported as 33.5 µM (cell growth or viability, MTT; 24 h).
The protective concentration of `COc1cnc(NS(=O)(=O)c2ccc(NC(=O)/C=C\c3ccc(O)c(O)c3)cc2)nc1` is reported as at most 200 µM (cell viability, MTT; 24 h pretreatment, together with: H2O2 800 µM for 4 h).
For `NNC(=O)Cn1cc(COc2ccccc2-c2nc(-c3ccccc3)no2)nn1`, the mRNA level was 0.3 ± 0.004 fold (qPCR, measured: PI3K; IC50, 24 h; reference: untreated cancer cells).
The cell migration of `Nc1nccc(-n2cc(C(=O)NC3CCNCC3)c3ccc(C#CC4(O)CCCCC4)cc32)n1` is reported as 39% (wound-healing; 5 µM).
The mRNA level of `NC(=O)Cn1cc(COc2ccccc2-c2nc(-c3ccccc3)no2)nn1` is reported as 0.28 ± 0.002 fold (qPCR, measured: PI3K; IC50, 24 h; reference: untreated cancer cells).
`C#C[C@@]1(O)[C@@H](CO)O[C@@H](n2cc(Br)c3c(N)ncnc32)[C@@H]1O` gave a GI50 of 0.019 ± 0.097 µM (48 h).
For `Cc1cc(C)c(C2C3CCCN3C3(C(=O)Nc4ccccc43)C2C(=O)c2ccccc2)c(C)c1` (stereo not drawn), the IC50 was 28.9 µM (cell growth or viability, MTT; 24 h).
With `O=C(/C=C\c1ccc(O)c(O)c1)Nc1ccc(S(=O)(=O)Nc2ncccn2)cc1` the protective concentration was at most 200 µM (cell viability, MTT; 24 h pretreatment, together with: H2O2 800 µM for 4 h).
`CO/C1=C\C(C)=C\[C@@H](C)[C@@H](O)[C@@H](C)C/C(C)=C/C=C/[C@H](OC)[C@@H]([C@@H](C)[C@@H](O)[C@H](C)[C@@]2(O)C[C@@H](O)[C@H](C)[C@@H](C(C)C)O2)OC1=O`: “cell surface pH” 8.9 ± 0.12 (fluorescein-WGA ratio imaging; concentration not given, 37 °C, medium pH 7.4).
`Cc1cc(C)c(C2C3CCCN3C3(C(=O)Nc4ccccc43)C2C(=O)c2ccc(Cl)cc2)c(C)c1` (stereo not drawn) has an IC50 of 8.24 µM (cell growth or viability, MTT; 48 h).
With `NC(=O)Cn1cc(COc2ccccc2-c2nc(Cc3ccccc3)no2)nn1` the mRNA level was 0.25 ± 0.0008 fold (qPCR, measured: mTOR; IC50, 24 h; reference: untreated cancer cells).
`Nc1nccc(-n2cc(C(=O)N3CCC(N)CC3)c3ccc(C#CC4(O)CCCCC4)cc32)n1` has a cell migration of 56% (wound-healing; 5 µM).
The IC50 of `CC(=NN=C(N)[S-])C(C)=NN=C(N)[S-].O=[N+]([O-])[O-].[Co+3].c1c[nH]cn1.c1c[nH]cn1` is reported as over 500 µM (cell viability, MTT; 24 h then 48 h recovery, normoxia).
The IC50 of `C=CCc1ccc(O)c(-c2ccc(O)c(CC=C)c2)c1` is reported as 5.01 µM (cell proliferation, MTS; 72 h, together with: 10 µM BLM).
With `CC1=CC(=O)c2ccccc2C1=O` the inhibition was about 65% (diacetyl reduction to acetoin; 300 µM, 3 h, together with: diacetyl 2 mM).
For `Cc1cc(C)c(C2C3CCCN3C3(C(=O)Nc4ccccc43)C2C(=O)c2ccc(Br)cc2)c(C)c1` (stereo not drawn), the IC50 was 55.6 µM (cell growth or viability, MTT; 24 h).
With `Nc1nccc(-n2cc(C(=O)N3CC[C@@H](N)C3)c3ccc(C#CC4(O)CCCCC4)cc32)n1` the cell migration was 68% (wound-healing; 5 µM).
The IC50 of `Cc1cc(C)c(C2CN(C)C3(C(=O)Nc4ccccc43)C2C(=O)c2ccc(F)cc2)c(C)c1` (stereo not drawn) is reported as 9.02 µM (cell growth or viability, MTT; 24 h).
The cell migration of `Nc1nccc(-n2cc(C(=O)N3CCC[C@H](N)C3)c3ccc(C#CC4(O)CCCCC4)cc32)n1` is reported as 71% (wound-healing; 5 µM).
The Hill slope of `CC[C@@]1(O)C(=O)OCc2c1cc1n(c2=O)Cc2cc3ccccc3nc2-1` is reported as -0.692 (cytotoxicity, MTT; 48 h).
